Published values gathered from unrelated publications.
Compare with care: the assays were run in different laboratories. Values joined by “and” are separate records of one study, mostly repeats; a detail may differ. ± gives the spread as reported. ≈ marks a conversion by molar mass, not a printed value.

For Cc1cc(-c2cc([C@@H](C)NC(=O)c3cc(OCCN(C)C)ccc3C)c3ccccc3n2)n(C)n1, the viability was 106% and 105% (Vero E6; 3.906 µM).
NC(=O)c1cc(-c2ccsc2)ccc1OCCc1cc(F)cc(F)c1 gave a selectivity ratio of less than 1 (HepG2; 3 (unit not given); baseline: CC50 glucose over CC50 galactose).
Cc1ccc(N(C)CCN2CCOCC2)cc1C(=O)N[C@H](C)c1cc(-c2cnn(C)c2)nc2ccccc12 gave a viability of 92.1% and 91.7% and 90.8% (Vero E6; 15.62 µM).
With CCOc1ccc(CN2CC[C@H]2C(=O)NC)cc1-c1cccc(C(=O)NC[C@@H]2COC(C)(C)O2)c1 the viability was 0.884 and 0.975 and 0.902 (Huh-7-ACE2; CellTiter-Glo; 6.25 µM, 48 h, unit not given; baseline: DMSO).
O[Si](CCCN1CCCCC1)(c1ccc(F)cc1)C1CCCCC1 (stereo not shown) has an IC50 of 35.3 µM (CHO; cell growth or viability; 72 h).
Cc1ccc(O[C@H]2CCN(C)C2)cc1C(=O)N[C@H](C)c1cc(-c2cnn(C)c2)nc2ccccc12 gave a viability of 90.8% and 93.9% and 86.8% (Vero E6; 15.62 µM).
CC(C)C[C@H](NC(=O)[C@H](CCCNC(=N)N)NC(=O)[C@H](Cc1c[nH]c2ccccc12)NC(=O)[C@H](CCCNC(=N)N)NC(=O)[C@H](Cc1c[nH]c2ccccc12)NC(=O)[C@H](Cc1c[nH]c2ccccc12)NC(=O)[C@H](Cc1c[nH]c2ccccc12)NC(=O)[C@H](CCCNC(=N)N)NC(=O)[C@H](Cc1c[nH]c2ccccc12)NC(=O)[C@H](CCCNC(=N)N)NC(=O)CN)C(N)=O: “minimal haemolytic concentration” 32 µM (mouse red blood cells).
The viability of Cc1ccc(N2CCN(C)C3(CC3)C2)cc1C(=O)N[C@H](C)c1cc(-c2cnn(C)c2)nc2ccccc12 is reported as 89.2% and 84.8% and 85.6% (Vero E6; 31.25 µM).
The hemolysis of C#CCOc1ccc(CN[C@@]2(C)C[C@H](O[C@H]3[C@H](Oc4c5cc6cc4Oc4ccc(cc4Cl)[C@@H](O)[C@@H](NC(=O)[C@@H](CC(C)C)NC)C(=O)N[C@@H](CC(N)=O)C(=O)N[C@H]6C(=O)N[C@H]4C(=O)N[C@H](C(=O)N[C@H](C(=O)NCC(N)=O)c6cc(O)cc(O)c6-c6cc4ccc6O)[C@H](O)c4ccc(c(Cl)c4)O5)O[C@H](CO)[C@@H](O)[C@@H]3O)O[C@@H](C)[C@H]2O)cc1OC is reported as less than 5% (sheep erythrocytes; 512 µg/mL, 37 °C; baseline: Triton X-100).
The IC50 of C#Cc1ccc(N2CCOCC2)c(/C=N/NC(=O)CCl)c1 is reported as 2.3 µM (MCF-10A; cell growth or viability, ATP luminescence; 24 h).
For CC(C)C[C@H](NC(=O)[C@H](CCCNC(=N)N)NC(=O)[C@H](CCCNC(=N)N)NC(=O)[C@@H](N)Cc1c[nH]c2ccccc12)C(=O)N[C@@H](Cc1c[nH]c2ccccc12)C(=O)N[C@@H](Cc1c[nH]c2ccccc12)C(=O)N[C@@H](Cc1c[nH]c2ccccc12)C(=O)N[C@@H](CCCNC(=N)N)C(=O)N[C@@H](Cc1c[nH]c2ccccc12)C(=O)O, “lowest cytotoxic concentration” read 256 µg/mL (HEK-293T cells; CCK-8; 4 h, 37 °C, 10% cell death).
CCn1ccc(-c2cc([C@@H](C)NC(=O)c3cc(N4CC5CCC(C4)N5C)ccc3C)c3ccccc3n2)n1 gave a viability of 0% and -0.142% and -0.427% (Vero E6; 250 µM).
The EC50 of O=C(O)c1cccc(CP(=O)(O)O)n1 is reported as 700 ± 200 µg/mL (≈ 3.22 mM) (H4IIE; cytotoxicity, Alamar blue; DMEM without FBS; 24 h, 10% FBS).
O=C1C(Cl)=C(Cl)C(=O)c2ccccc21 has an IC50 of 115 ± 4.11 µM (MRC-5; cytotoxicity, MTT; 48 h, 10% FBS).
For Cc1ccc(N(C)C2CN(C)C2)cc1C(=O)N[C@H](C)c1cc(-c2cnn(C)c2)nc2ccccc12, the viability was 15.9% and 14.9% and 22.6% (Vero E6; 125 µM).
For CNC(=O)C[C@H](Cc1ccccc1)NC(=O)[C@@H](Cc1ccc(Cl)cc1Cl)NC(=O)[C@H](N)Cc1ccccc1C#N, the viability was 0.999 and 0.95 and 1.06 (Huh-7-ACE2; CellTiter-Glo; 0.781 µM, 48 h, unit not given; baseline: DMSO).
For CCn1ccc(-c2cc([C@@H](C)NC(=O)c3cc(OC[C@@H]4CCCN4C)ccc3C)c3ccccc3n2)n1, the viability was 1.43% and 0.716% and 1.19% (Vero E6; 125 µM).
N=C(N)NCCC[C@H](NC(=O)[C@H](Cc1c[nH]c2ccccc12)NC(=O)[C@H](CCCNC(=N)N)NC(=O)[C@H](Cc1c[nH]c2ccccc12)NC(=O)[C@H](Cc1c[nH]c2ccccc12)NC(=O)[C@H](Cc1c[nH]c2ccccc12)NC(=O)[C@H](CCCNC(=N)N)NC(=O)[C@H](Cc1c[nH]c2ccccc12)NC(=O)[C@@H](N)CCCNC(=N)N)C(=O)N[C@@H](Cc1c[nH]c2ccccc12)C(N)=O: “minimal haemolytic concentration” 16 µM (mouse red blood cells).
With Cc1ccc(N2CC(N(C)C)C2)cc1C(=O)N[C@H](C)c1cc(-c2cnn(C)c2)nc2ccccc12 the viability was 91.5% and 94.5% and 92.3% (Vero E6; 15.62 µM).
For CC[C@H](C)[C@H](NC(=O)[C@@H](NC(=O)[C@H](C)NC(=O)[C@H](C)NC(=O)[C@H](CCC(N)=O)NC(=O)CNC(=O)[C@@H](NC(=O)[C@@H](NC(=O)[C@H](C)NC(=O)[C@@H](NC(=O)[C@H](C)NC(=O)[C@@H]1CCCN1C(=O)CNC(=O)[C@H](C)NC(=O)[C@H](CCCCN)NC(=O)[C@@H](NC(=O)[C@@H](NC(=O)CNC(=O)[C@H](CC(=O)O)NC(=O)[C@H](CCCNC(=N)N)NC(=O)[C@@H](NC(=O)[C@H](CC(N)=O)NC(=O)[C@H](CCC(N)=O)NC(=O)CNC(=O)[C@@H](NC(=O)[C@H](CCCCN)NC(=O)[C@H](CCC(=O)O)NC(=O)[C@@H](NC(=O)[C@H](CCCCN)NC(=O)[C@H](CCCCN)NC(=O)[C@H](Cc1ccccc1)NC(=O)[C@@H](NC(=O)[C@H](CCCCN)NC(=O)[C@H](Cc1c[nH]c2ccccc12)NC(=O)[C@@H](N)CCCNC(=N)N)[C@@H](C)CC)[C@@H](C)CC)C(C)C)[C@@H](C)CC)[C@@H](C)CC)C(C)C)C(C)C)C(C)C)C(C)C)[C@@H](C)O)C(N)=O, cytotoxicity read “not toxic” (MDA-MB-231; CCK-8; 8 µM, 24 h, 1% FBS).
With C#CCOc1ccc(CN[C@@]2(C)C[C@H](O[C@H]3[C@H](Oc4c5cc6cc4Oc4ccc(cc4Cl)[C@@H](O)[C@@H](NC(=O)[C@@H](CC(C)C)NC)C(=O)N[C@@H](CC(N)=O)C(=O)N[C@H]6C(=O)N[C@H]4C(=O)N[C@H](C(=O)N[C@H](C(=O)N[C@@H](CCCNC(=N)N)C(N)=O)c6cc(O)cc(O)c6-c6cc4ccc6O)[C@H](O)c4ccc(c(Cl)c4)O5)O[C@H](CO)[C@@H](O)[C@@H]3O)O[C@@H](C)[C@H]2O)cc1OC the hemolysis was less than 5% (sheep erythrocytes; 512 µg/mL, 37 °C; baseline: Triton X-100).
For C[C@H](NC(=O)[C@H](CCCNC(=N)N)NC(=O)[C@H](Cc1c[nH]c2ccccc12)NC(=O)[C@H](CCCNC(=N)N)NC(=O)[C@H](Cc1c[nH]c2ccccc12)NC(=O)[C@H](Cc1c[nH]c2ccccc12)NC(=O)[C@H](Cc1c[nH]c2ccccc12)NC(=O)[C@H](CCCNC(=N)N)NC(=O)[C@H](Cc1c[nH]c2ccccc12)NC(=O)[C@@H](N)CCCNC(=N)N)C(N)=O, “minimal haemolytic concentration” read 64 µM (mouse red blood cells).
For O=c1n(CCNCCOS(=O)(=O)c2ccccc2)c(=O)n(S(=O)(=O)c2ccccc2)c(=O)n1S(=O)(=O)c1ccccc1, the IC50 was 2.48 µg/mL (HUVEC; cell growth or viability, MTT; 72 h).
CN(C)CCCNC(=O)[C@@H]1NC(=O)[C@@H]2Cc3ccc(cc3)Oc3cc4cc(c3O)-c3ccc5c(c[nH]c5c3)C[C@@H](NC(=O)C(NC(=O)CCCCCN)c3ccc(O)cc3)C(=O)N[C@H](c3ccc(O)cc3)C(=O)N[C@H]4C(=O)N[C@@H](C(=O)N2C)c2ccc(cc2)Oc2cc1ccc2O (stereo partly shown) gave a hemolysis of 0.47% (human red blood cells; 1 µg/mL, 1 h, 37 °C, 1% DMSO).
O=C(Nc1cccs1)c1cccnc1 has a half-life of roughly 3.8 h (HCT-116; LC-MS/MS; Nam-free DMEM 10% FBS; 100 nM).
CNC(=O)CC1CN(C(=O)c2ccc(C(F)(F)F)cn2)CCN1C(=O)c1cccnn1 (stereo not shown) gave a viability of 1.09 and 0.941 and 0.959 (Huh-7-ACE2; CellTiter-Glo; 6.25 µM, 48 h, unit not given; baseline: DMSO).
The ER colocalization of CCC1=C(C)C2=C(c3ccc(C(=O)NCCNC(=O)c4ccc(P(=NC5=[O+][Ru-]([Cl])[n+]6ccccc65)(c5ccccc5)c5ccccc5)cc4)cc3)c3c(C)c(CC)c(C)n3[B-](F)(F)[N+]2=C1C.Cc1ccc(C(C)C)cc1.[Cl-] is reported as 83 ± 9% (MDA-MB-231; confocal microscopy; 10 µM, added: ER-Tracker Red).
O=C(C=Cc1ccc(O)c(O)c1)OC1CC(O)(C(=O)O)CC(OC(=O)C=Cc2ccc(O)c(O)c2)C1O (stereo not shown) has a cytotoxicity of 0% (Vero E6; 12.5 µM).
CCCCCC1=C(NCC)C(=O)C(C/C=C(\C)CCC=C(C)C)=C(O)C1=O has a cytostasis of 52% (human peripheral blood lymphocytes; 20 µg/mL, 24 h, without S9).
CNC(=O)C[C@H](Cc1ccc(F)cc1)NC(=O)[C@@H](Cc1ccc(Cl)cc1Cl)NC(=O)[C@H](N)Cc1ccccc1[N+](=O)[O-] has a viability of 0.952 and 1.02 and 0.995 (Huh-7-ACE2; CellTiter-Glo; 3.125 µM, 48 h, unit not given; baseline: DMSO).
For C[C@H](NC(=O)[C@H](CCCNC(=N)N)NC(=O)[C@H](Cc1c[nH]c2ccccc12)NC(=O)[C@H](CCCNC(=N)N)NC(=O)[C@H](Cc1c[nH]c2ccccc12)NC(=O)[C@H](Cc1c[nH]c2ccccc12)NC(=O)[C@H](Cc1c[nH]c2ccccc12)NC(=O)[C@H](CCCNC(=N)N)NC(=O)[C@H](Cc1c[nH]c2ccccc12)NC(=O)[C@H](CCCNC(=N)N)NC(=O)CN)C(N)=O, “minimal haemolytic concentration” read 64 µM (mouse red blood cells).

Some of these lines once more:
O[Si](CCCN1CCCCC1)(c1ccc(F)cc1)C1CCCCC1 (stereo not shown) has an IC50 of 35.3 µM (CHO; cell growth or viability; 72 h).
Cc1ccc(O[C@H]2CCN(C)C2)cc1C(=O)N[C@H](C)c1cc(-c2cnn(C)c2)nc2ccccc12 gave a viability of 90.8% and 93.9% and 86.8% (Vero E6; 15.62 µM).
CC(C)C[C@H](NC(=O)[C@H](CCCNC(=N)N)NC(=O)[C@H](Cc1c[nH]c2ccccc12)NC(=O)[C@H](CCCNC(=N)N)NC(=O)[C@H](Cc1c[nH]c2ccccc12)NC(=O)[C@H](Cc1c[nH]c2ccccc12)NC(=O)[C@H](Cc1c[nH]c2ccccc12)NC(=O)[C@H](CCCNC(=N)N)NC(=O)[C@H](Cc1c[nH]c2ccccc12)NC(=O)[C@H](CCCNC(=N)N)NC(=O)CN)C(N)=O: “minimal haemolytic concentration” 32 µM (mouse red blood cells).
